Experimental data of several laboratories.
Every numbered part comes from another study and shows a few of its results, in no order.

Series 1
Target: Histone acetyltransferase KAT6A, both winged helices, GST fusion (KAT6A, Homo sapiens, UniProt Q92794, residues 1-181)
Technique: protein binding microarray
Form: double-stranded DNA, one strand shown
Sample: in vitro
Concentration: not given
Notes: 8-mer, flanks averaged, mean of 2 arrays, mostly near background
Relative to: not given
Reading: higher = stronger binding
Quantity: E-score
Residues (chain): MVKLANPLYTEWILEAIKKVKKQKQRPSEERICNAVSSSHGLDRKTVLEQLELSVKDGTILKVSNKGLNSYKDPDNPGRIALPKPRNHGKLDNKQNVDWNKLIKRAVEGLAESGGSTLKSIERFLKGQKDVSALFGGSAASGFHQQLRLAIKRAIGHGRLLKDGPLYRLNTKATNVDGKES
CTCGTGCA: 0.0139
ACACGGAC: 0.211
ACAAATAG: 0.0582
AACTTACG: 0.123
CATGTGAC: -0.189
AACTGCCA: -0.0301
ACTGGACT: -0.208
CACAGTGG: -0.0627
TGACTCCA: -0.322
CAGTCACA: -0.137
GTAGCATA: -0.0316
GATATTGC: -0.0381
GCACCTTA: 0.0611
ACGCCTGC: -0.0543
AGAGCCCG: -0.0215
GTGATGGA: -0.176
GGCGTAAA: 0.217
AGAAGGAA: 0.108
CGTGACAC: 0.177
ATAATACA: -0.0667
GTGGTCTA: -0.129
TGAGCTAA: -0.0833
GCTCCTGA: 0.00254
CGAGGACG: 0.0911
GAAAGCGC: 0.347

Series 2
Target: RNA binding protein fox-1 homolog 2, RRM domain, GST-SBP tag (RBFOX2, Homo sapiens, UniProt O43251-10, residues 100-194)
Technique: RNA Bind-n-Seq
Form: RNA
Sample: in vitro
Concentration: 365 nM
Notes: natural RNA segment, single round, ends assumed
Relative to: no-protein control
Reading: higher = stronger binding
Quantity: RBNS enrichment (R)
All sequences stand within: GGGAGUUCUACAGUCCGACGAUC … UGGAAUUCUCGGGUGCCAA
Residues (chain): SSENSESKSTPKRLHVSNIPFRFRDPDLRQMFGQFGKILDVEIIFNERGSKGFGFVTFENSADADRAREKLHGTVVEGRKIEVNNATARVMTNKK
CAUCAGUAGGUAAAAUACAUAAUGUUACAUAGUGUAAUAUGAUAUGAUGUGAUUAAAUUAUAGUUCCUGCUGUUAAAUUGCCUUUUGAAAACUUGGCUCCAGGGUUGGUG: 0.7
UAUUGCUGACCAGUCAGUGUCAUCUCCCGGGUGAAUUUUGAUGUCACGUUAUAGUCAAAUGAGUUAGCUGAUGGUUUCUAGAUUUUCUUCCUCUGAACCAUGAUGCAGUA: 0.568
CUGAUGAGUGUUGUAUAGAUGAUUUGAAUUGAUAAAAGUAUUAGGGAUGAGGUUUGUACUUUCCUGAACUUGAAUUUCAAACACUAACUGUAUCCUAUGAGUGACGUGUG: 1.1
UUUUUUGUUAGCUGAGACAUUGACAUGUUUGUAUUUAAUUCUCUUGAUAAAUUAGCUACUACAACCCCAUGGAACCAAGUCUUUUCAAAUUUCAACAAAUUGUCUUUGAG: 0.336
CUCCAUCAGAUGUCUGGGCCUCCUCCAUCAGAUGCCUGGGCCUCCUCCAUCAGAUGCCUGGGCCUCCUCCAUCAGAUGUCUAGGCCUCCUCCAUCAGAUGCCUGGGCCUC: 0.259
UGCGGUGUAGAGGAUGCUCUUGGCCGGCUGGAGCAAGACCUGGCUCCCACCAGAGGGACGUGUGUGUGCCUGCAGACGGCCCGGGAGCUGUGUGUCUCCGCCAGAGUCAC: 0.311
AGCAAGCUUAAAUUACAGAAGCAACUAUCCUGUCGAAAUGUCGUAAUACAGUCCAGCUGAAAGUAGGAAAUGACUGACCUGUAGGGUUAUAGGGUCCCUGAAUCACUGAU: 0.482
UGGUUAGUGCUCACCCACAAGCUUCCAGGAGCCAGCUGGGAGGAGACAAUAGGAAGAGAUGUCAUCUCUGCUCUCCCUGUAAAUGUUAGUUGAACUAAGUUAUGGAUUUG: 0.624
AGGUACAGUUUAUUAACUAGAUGGAAGAGAAUGGAAUUACUCCAAGAAUACAAGUGCACAGGCGGCAACUCCUUACUUCCAGCAAAAUUGAAACUGCUGUCUCUGAAACU: 0.596
UUUUAGCCUAACCCUGAUCCCUUAACUGGUGCACCCCAGCCCCCGUGUUCGGGGCUCCCACCAUCUGUCCAGCCUUCUUGGCCACCAGCUCUGUCCCUCCUUCCUAGAUA: 0.667
GAUGAUUGUCUGCAGGGCAUCUGUGUAUAUCACAGUGGCCAGGCCCCCUGCAAGAAACAAGGCUGCUGGAGUAAGUGUCCCAGGAGAGUCUGACCUCAUCACCAGAGCUG: 0.475
CCUUAGCAGCCCUGGAUGGUGGCCAGAAAUAAAGGGACCAGCCCUUCAUGGGUGGUGACGUGGUAGUCACUUGUAAGGGGAACAGAAACAUUUUUGUUCUUAUGGGGUGA: 0.481

Series 3
Target: Centromere-binding protein 1, full length, N-terminal tag (CBF1, Saccharomyces cerevisiae, UniProt P17106, residues 1-351)
UniProt P17106, sequence (whole entry, looked up): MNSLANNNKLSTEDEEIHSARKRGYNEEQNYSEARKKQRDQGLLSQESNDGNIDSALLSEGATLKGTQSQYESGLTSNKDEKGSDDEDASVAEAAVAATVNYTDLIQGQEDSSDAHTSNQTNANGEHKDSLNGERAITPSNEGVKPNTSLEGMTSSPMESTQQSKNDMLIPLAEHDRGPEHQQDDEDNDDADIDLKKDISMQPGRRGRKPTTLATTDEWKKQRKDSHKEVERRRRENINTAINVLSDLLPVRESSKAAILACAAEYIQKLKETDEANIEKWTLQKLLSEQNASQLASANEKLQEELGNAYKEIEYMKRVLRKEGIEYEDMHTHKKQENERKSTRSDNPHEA
Technique: protein-binding microarray
Form: double-stranded DNA, one strand shown
Sample: in vitro
Concentration: 0.8 µM
Notes: whole 60-bp probe, no competitor
Reading: higher = stronger binding
Quantity: fluorescence intensity
All sequences stand within: … GTCTTGATTCGCTTGACGCTGCTG
GAACGCGAAAATGACCACGCGAAAAGAAAAATTTAG: 573 a.u.
GAATTGTGATCTTTCCACGTTCAGCAAGACACATAG: 538 a.u.
CTATATTTTTGCGTGCACGAGTAATCTAGCGAATTC: 794 a.u.
CCTAACTACTATAGTACTGATCAATAGCTTCGTACA: 530 a.u.
GAACTTGAAAACGTGCATGTGATGATGGCATCGTAG: 2250 a.u.
TGTACGAAGCTATTTCACATGGGTATAGTAGTTAGG: 579 a.u.
GAACGGCAATATAGTCAGATGAGTCACTACGAGTAG: 598 a.u.
TGTACGAAGCTATATAACCACGTTATAGTAGTTAGG: 618 a.u.
CTACTAGTATATTATCACATGATATTTCTCAAATTC: 3030 a.u.
CTAGCGCTATTTTGTCACCTTTAACTTGGCATATTC: 539 a.u.
GAATTTTTCAACAGTCACGTGCGCATCTCCCTTTAG: 16700 a.u.
GAATGAATAAATCGACGTGTGTGTACGGTGGAATAG: 568 a.u.
GAACAGGATTCAAATGGTGACGTTAAAAACATGTAG: 538 a.u.
CTAAACACTATAAGCGTGATGATAGAATTATTATTC: 593 a.u.
CTACTACGATACATGCACGCCGCTCATCTATATTTC: 506 a.u.
GAATGATTGTACATTCATGTGATAATTTGACGCTAG: 861 a.u.
CTAGAAATATTCGTGTTCGTGCGTCGCGATTTTTTC: 538 a.u.
CTAGGCGCTTTCTATCAGCTGTCATCGATTTGATTC: 632 a.u.
CTACAGCCAATCAAACACGAGGAATGTGGGATGTTC: 606 a.u.
GAATTGCTAAATGATCACGAAAAATGTTTTTTTTAG: 556 a.u.
CTATCCTTTTCACTTCACGTTCGCAGGGCTTTCTTC: 614 a.u.
GAAATAATTTAAAGATTCGTGCTTCTGGTATTCTAG: 511 a.u.
TGTACGAAGCTATCTCACGTGATTATAGTAGTTAGG: 12300 a.u.
GAAATCCGAGTATGGCGCGTGAAGAAAATGAAGTAG: 582 a.u.

Series 4
Target: Prothrombin, mature alpha-thrombin (F2, Homo sapiens, UniProt P00734)
Technique: aptamer microarray, sandwich
Form: DNA with 2'F-ANA
Sample: in vitro
Concentration: 200 nM
Notes: whole 15-mer aptamer, many near background
With: Cy3 exosite-II aptamer, 400 nM
Reading: higher = stronger binding
Quantity: mean fluorescence intensity
Strand: GGTTGGTGTGGTTGG
2'F-ANA at 1 2 4 5 6 9 11 12 14: 51.2 a.u.
2'F-ANA at 1 3 5 6 9 12 14 15: 47.2 a.u.
2'F-ANA at 2 3 4 6 10 11 12: 293 a.u.
2'F-ANA at 7 8 9 13: 489 a.u.
2'F-ANA at 2 3 6 8 10 11 12 13 15: 338 a.u.
2'F-ANA at 1 2 4 7 11 13 15: 82.8 a.u.
2'F-ANA at 1 3 4 7 9 11 12 15: 297 a.u.
2'F-ANA at 1 3 4 5 7 8 9 10 11 13 14 15: 46.9 a.u.
2'F-ANA at 1 7 9 14 15: 60.2 a.u.
2'F-ANA at 1 2 3 8 9 10 11 13 15: 77 a.u.
2'F-ANA at 3 4 5 6 7 13 15: 59.2 a.u.
2'F-ANA at 2 6 10 11 12 14: 83.1 a.u.
2'F-ANA at 1 3 4 7 8 10 11 12 15: 113 a.u.
2'F-ANA at 1 2 4 8 10 13 15: 53.8 a.u.
2'F-ANA at 3 4 10 11 12 14 15: 202 a.u.
2'F-ANA at 3 5 6 7 8 9 11 12 15: 193 a.u.
2'F-ANA at 1 4 5 7 8 10 11 14 15: 46.2 a.u.
2'F-ANA at 1 2 6 8 9 12 15: 362 a.u.
2'F-ANA at 2 3 4 5 6 7 9 10 12 14: 49 a.u.
2'F-ANA at 2 3 4 6 8 12 13 15: 599 a.u.
2'F-ANA at 4 8 9 10 13 15: 67.9 a.u.
2'F-ANA at 2 3 4 6 7 9 12 13: 506 a.u.
2'F-ANA at 2 4 5 6 7 8 9 10 11 12: 137 a.u.
2'F-ANA at 1 3 6 7 10 11 12 13: 93.3 a.u.
2'F-ANA at 1 5 6 11 14: 75.8 a.u.

For quick reference, copied from above (series 2):
CCUUAGCAGCCCUGGAUGGUGGCCAGAAAUAAAGGGACCAGCCCUUCAUGGGUGGUGACGUGGUAGUCACUUGUAAGGGGAACAGAAACAUUUUUGUUCUUAUGGGGUGA: 0.481
UGGUUAGUGCUCACCCACAAGCUUCCAGGAGCCAGCUGGGAGGAGACAAUAGGAAGAGAUGUCAUCUCUGCUCUCCCUGUAAAUGUUAGUUGAACUAAGUUAUGGAUUUG: 0.624
AGGUACAGUUUAUUAACUAGAUGGAAGAGAAUGGAAUUACUCCAAGAAUACAAGUGCACAGGCGGCAACUCCUUACUUCCAGCAAAAUUGAAACUGCUGUCUCUGAAACU: 0.596
UAUUGCUGACCAGUCAGUGUCAUCUCCCGGGUGAAUUUUGAUGUCACGUUAUAGUCAAAUGAGUUAGCUGAUGGUUUCUAGAUUUUCUUCCUCUGAACCAUGAUGCAGUA: 0.568
CAUCAGUAGGUAAAAUACAUAAUGUUACAUAGUGUAAUAUGAUAUGAUGUGAUUAAAUUAUAGUUCCUGCUGUUAAAUUGCCUUUUGAAAACUUGGCUCCAGGGUUGGUG: 0.7
GAUGAUUGUCUGCAGGGCAUCUGUGUAUAUCACAGUGGCCAGGCCCCCUGCAAGAAACAAGGCUGCUGGAGUAAGUGUCCCAGGAGAGUCUGACCUCAUCACCAGAGCUG: 0.475
CUCCAUCAGAUGUCUGGGCCUCCUCCAUCAGAUGCCUGGGCCUCCUCCAUCAGAUGCCUGGGCCUCCUCCAUCAGAUGUCUAGGCCUCCUCCAUCAGAUGCCUGGGCCUC: 0.259
CUGAUGAGUGUUGUAUAGAUGAUUUGAAUUGAUAAAAGUAUUAGGGAUGAGGUUUGUACUUUCCUGAACUUGAAUUUCAAACACUAACUGUAUCCUAUGAGUGACGUGUG: 1.1
UGCGGUGUAGAGGAUGCUCUUGGCCGGCUGGAGCAAGACCUGGCUCCCACCAGAGGGACGUGUGUGUGCCUGCAGACGGCCCGGGAGCUGUGUGUCUCCGCCAGAGUCAC: 0.311
UUUUAGCCUAACCCUGAUCCCUUAACUGGUGCACCCCAGCCCCCGUGUUCGGGGCUCCCACCAUCUGUCCAGCCUUCUUGGCCACCAGCUCUGUCCCUCCUUCCUAGAUA: 0.667
AGCAAGCUUAAAUUACAGAAGCAACUAUCCUGUCGAAAUGUCGUAAUACAGUCCAGCUGAAAGUAGGAAAUGACUGACCUGUAGGGUUAUAGGGUCCCUGAAUCACUGAU: 0.482
UUUUUUGUUAGCUGAGACAUUGACAUGUUUGUAUUUAAUUCUCUUGAUAAAUUAGCUACUACAACCCCAUGGAACCAAGUCUUUUCAAAUUUCAACAAAUUGUCUUUGAG: 0.336
